Assay results gathered from unrelated publications.
Compare with care: the assays were run in different laboratories. ± marks the error that the study gave.
CHRM3: Muscarinic acetylcholine receptor M3 (CHRM3, Homo sapiens, UniProt P20309)
Chain of UniProt P20309 (whole entry, unmodified, looked up): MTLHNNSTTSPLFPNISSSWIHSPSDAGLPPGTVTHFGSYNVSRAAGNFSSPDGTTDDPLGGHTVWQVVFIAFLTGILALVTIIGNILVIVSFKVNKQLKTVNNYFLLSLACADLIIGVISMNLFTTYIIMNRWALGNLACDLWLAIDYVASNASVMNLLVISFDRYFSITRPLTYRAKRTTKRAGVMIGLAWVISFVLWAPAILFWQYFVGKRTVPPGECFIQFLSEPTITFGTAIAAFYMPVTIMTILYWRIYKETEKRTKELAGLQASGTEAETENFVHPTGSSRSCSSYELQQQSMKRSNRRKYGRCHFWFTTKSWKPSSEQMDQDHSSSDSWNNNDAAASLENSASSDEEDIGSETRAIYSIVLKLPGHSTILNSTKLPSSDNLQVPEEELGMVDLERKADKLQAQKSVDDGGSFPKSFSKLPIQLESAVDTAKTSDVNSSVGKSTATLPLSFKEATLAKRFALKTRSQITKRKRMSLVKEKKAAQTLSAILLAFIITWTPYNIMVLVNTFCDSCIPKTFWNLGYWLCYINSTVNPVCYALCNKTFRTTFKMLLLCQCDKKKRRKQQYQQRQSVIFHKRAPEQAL
GRPR: Gastrin-releasing peptide receptor (GRPR, Homo sapiens, UniProt P30550)
Chain of UniProt P30550 (whole entry, looked up): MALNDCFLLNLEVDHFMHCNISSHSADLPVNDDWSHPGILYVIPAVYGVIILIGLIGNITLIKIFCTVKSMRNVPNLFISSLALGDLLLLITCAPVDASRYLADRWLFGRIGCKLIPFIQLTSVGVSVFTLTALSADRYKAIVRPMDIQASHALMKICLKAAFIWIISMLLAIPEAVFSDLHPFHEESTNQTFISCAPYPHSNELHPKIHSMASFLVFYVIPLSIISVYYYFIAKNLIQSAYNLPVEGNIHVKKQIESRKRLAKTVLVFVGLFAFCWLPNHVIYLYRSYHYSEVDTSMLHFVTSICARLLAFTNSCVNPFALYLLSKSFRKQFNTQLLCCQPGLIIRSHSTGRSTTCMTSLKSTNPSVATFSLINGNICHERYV
Mc1r: Melanocyte-stimulating hormone receptor (Mc1r, Mus musculus, UniProt Q01727)
Chain of UniProt Q01727 (whole entry, looked up): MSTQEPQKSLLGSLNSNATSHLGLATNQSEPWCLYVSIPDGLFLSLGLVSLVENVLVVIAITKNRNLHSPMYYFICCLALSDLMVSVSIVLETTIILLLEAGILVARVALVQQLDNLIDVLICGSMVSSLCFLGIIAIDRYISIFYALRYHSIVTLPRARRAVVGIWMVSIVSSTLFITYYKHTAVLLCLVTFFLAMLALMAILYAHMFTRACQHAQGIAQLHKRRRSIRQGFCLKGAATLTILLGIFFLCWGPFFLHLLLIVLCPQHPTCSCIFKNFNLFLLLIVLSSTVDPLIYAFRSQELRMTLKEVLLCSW
uidA: Beta-glucuronidase (uidA, Escherichia coli, UniProt P05804)
Chain of UniProt P05804 (whole entry, looked up): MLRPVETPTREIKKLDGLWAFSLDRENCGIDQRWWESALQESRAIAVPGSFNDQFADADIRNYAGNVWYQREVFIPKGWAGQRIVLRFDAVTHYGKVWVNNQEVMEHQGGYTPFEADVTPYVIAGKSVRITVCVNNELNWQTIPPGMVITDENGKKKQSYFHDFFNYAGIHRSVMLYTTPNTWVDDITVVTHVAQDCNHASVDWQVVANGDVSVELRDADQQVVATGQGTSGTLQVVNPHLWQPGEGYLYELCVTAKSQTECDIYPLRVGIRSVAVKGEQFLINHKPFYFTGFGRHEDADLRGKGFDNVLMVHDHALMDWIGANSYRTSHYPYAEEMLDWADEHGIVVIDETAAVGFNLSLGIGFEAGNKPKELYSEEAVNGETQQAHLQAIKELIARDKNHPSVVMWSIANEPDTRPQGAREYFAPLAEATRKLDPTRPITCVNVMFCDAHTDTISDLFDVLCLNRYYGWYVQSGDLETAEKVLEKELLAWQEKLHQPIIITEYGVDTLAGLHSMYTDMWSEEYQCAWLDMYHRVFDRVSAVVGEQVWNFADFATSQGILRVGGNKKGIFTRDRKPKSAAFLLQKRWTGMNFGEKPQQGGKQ
CHRM1: Muscarinic acetylcholine receptor M1 (CHRM1, Homo sapiens, UniProt P11229)
Chain of UniProt P11229 (whole entry, looked up): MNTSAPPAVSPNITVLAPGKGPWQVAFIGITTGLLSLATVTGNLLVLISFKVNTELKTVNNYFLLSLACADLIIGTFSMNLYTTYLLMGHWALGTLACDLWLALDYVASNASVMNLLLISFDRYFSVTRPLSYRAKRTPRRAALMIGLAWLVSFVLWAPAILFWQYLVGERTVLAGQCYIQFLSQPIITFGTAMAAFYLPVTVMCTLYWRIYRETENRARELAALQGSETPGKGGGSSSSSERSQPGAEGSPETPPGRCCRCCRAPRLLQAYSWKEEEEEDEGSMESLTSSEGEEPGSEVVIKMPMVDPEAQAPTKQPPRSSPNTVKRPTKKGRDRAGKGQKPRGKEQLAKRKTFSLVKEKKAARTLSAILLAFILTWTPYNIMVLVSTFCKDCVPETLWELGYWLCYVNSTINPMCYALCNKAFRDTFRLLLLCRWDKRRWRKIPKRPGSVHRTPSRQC
FPR1 N192K: fMet-Leu-Phe receptor (FPR1, Homo sapiens, UniProt P21462, N192K)
Chain of UniProt Q704Y3 (whole entry, looked up): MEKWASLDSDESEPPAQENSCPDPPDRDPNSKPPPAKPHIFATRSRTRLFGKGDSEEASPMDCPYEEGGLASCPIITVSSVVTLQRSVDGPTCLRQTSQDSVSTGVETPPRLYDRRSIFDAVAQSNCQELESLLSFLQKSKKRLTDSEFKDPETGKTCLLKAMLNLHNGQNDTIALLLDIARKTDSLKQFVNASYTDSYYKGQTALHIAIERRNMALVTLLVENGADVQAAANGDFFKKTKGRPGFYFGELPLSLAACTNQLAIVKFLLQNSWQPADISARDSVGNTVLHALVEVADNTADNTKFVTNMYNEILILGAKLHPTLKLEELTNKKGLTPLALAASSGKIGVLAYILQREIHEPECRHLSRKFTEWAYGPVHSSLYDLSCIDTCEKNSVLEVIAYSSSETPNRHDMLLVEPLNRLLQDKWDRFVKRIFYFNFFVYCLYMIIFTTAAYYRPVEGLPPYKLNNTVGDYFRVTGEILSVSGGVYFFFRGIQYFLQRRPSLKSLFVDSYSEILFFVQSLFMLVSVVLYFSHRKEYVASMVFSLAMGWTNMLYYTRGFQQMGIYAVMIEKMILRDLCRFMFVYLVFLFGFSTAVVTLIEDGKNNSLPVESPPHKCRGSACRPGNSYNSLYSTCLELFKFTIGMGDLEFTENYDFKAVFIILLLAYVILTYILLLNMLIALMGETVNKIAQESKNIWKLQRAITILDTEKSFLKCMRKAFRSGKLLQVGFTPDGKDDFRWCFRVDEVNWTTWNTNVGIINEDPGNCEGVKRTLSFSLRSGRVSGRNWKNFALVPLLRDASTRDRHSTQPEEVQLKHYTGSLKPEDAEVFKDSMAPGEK
Chain of UniProt Q9NYW4 (whole entry, looked up): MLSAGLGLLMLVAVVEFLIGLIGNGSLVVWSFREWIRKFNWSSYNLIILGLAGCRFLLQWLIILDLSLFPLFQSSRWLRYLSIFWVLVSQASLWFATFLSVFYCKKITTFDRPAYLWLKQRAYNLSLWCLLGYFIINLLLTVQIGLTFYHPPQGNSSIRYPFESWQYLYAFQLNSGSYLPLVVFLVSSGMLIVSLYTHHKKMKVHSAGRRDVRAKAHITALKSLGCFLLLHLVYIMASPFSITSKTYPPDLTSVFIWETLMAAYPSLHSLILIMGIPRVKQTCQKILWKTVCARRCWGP
Chain of UniProt A7T1N0 (whole entry, unmodified, looked up): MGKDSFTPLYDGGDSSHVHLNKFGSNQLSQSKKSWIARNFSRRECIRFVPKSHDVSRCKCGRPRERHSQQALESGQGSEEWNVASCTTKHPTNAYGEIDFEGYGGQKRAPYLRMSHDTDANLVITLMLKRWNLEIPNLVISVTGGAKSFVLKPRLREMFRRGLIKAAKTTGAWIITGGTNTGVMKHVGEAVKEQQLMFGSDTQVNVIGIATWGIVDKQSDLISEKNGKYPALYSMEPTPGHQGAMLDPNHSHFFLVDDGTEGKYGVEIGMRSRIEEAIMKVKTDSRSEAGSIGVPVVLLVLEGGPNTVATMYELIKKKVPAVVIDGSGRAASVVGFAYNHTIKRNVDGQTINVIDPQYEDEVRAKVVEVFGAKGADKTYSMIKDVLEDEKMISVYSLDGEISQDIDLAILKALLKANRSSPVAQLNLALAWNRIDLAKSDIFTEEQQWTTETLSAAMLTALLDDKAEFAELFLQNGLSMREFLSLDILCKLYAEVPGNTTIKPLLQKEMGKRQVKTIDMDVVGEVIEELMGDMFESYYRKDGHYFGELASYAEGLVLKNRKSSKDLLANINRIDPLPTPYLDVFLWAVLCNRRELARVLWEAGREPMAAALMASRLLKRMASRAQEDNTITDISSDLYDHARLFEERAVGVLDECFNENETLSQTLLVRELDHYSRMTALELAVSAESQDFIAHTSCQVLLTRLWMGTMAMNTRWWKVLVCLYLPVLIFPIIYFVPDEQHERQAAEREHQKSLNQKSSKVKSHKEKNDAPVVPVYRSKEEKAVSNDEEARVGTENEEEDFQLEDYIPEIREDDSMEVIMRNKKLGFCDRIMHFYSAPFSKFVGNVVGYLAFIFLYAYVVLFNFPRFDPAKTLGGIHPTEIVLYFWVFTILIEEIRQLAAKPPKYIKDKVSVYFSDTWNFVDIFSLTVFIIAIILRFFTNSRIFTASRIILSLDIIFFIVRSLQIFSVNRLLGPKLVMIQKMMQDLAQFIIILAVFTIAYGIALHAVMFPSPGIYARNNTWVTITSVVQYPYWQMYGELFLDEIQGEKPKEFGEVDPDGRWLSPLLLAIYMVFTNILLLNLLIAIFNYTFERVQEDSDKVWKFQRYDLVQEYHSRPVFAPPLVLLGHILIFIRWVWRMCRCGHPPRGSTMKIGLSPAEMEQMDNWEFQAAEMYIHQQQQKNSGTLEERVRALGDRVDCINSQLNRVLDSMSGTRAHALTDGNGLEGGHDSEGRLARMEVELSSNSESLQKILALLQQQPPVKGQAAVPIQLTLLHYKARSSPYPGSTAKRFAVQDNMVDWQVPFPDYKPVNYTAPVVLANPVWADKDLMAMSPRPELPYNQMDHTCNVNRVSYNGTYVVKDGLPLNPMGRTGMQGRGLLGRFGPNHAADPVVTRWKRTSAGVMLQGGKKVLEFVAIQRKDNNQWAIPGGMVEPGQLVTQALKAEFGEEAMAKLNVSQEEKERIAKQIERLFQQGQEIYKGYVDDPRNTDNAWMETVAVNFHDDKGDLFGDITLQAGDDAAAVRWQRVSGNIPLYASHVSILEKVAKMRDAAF

SMILES	target	test	test system	conditions	scale	EC50 [nM]
Clc1ccc2c(c1)N=C(N1CCNCC1)c1ccccc1N2	CHRM3	calcium signal, agonist	–	–	–	490
CCCC[C@H](NC(=O)[C@H](CC(C)C)NC(=O)[C@H](Cc1c[nH]cn1)NC(=O)CNC(=O)[C@@H](NC(=O)[C@H](C)NC(=O)[C@H](Cc1c[nH]c2ccccc12)NC(=O)[C@H](CCC(N)=O)NC(=O)[C@H](CC(N)=O)NC(=O)CNC(=O)[C@H](Cc1ccc(O)cc1)NC(=O)[C@H](CCCNC(=N)N)NC(=O)[C@H](CCC(N)=O)NC(=O)[C@@H]1CCC(=O)N1)C(C)C)C(N)=O	GRPR	inositol phosphate, agonist	–	–	–	0.43
CCCCC/C=C\C/C=C\C/C=C\C/C=C\CCCC(=O)NCCc1ccc(O)c(O)c1	Trpv1 (Mus musculus, UniProt Q704Y3)	ion current, agonist, whole-cell patch clamp	HEK293	24 °C, wild type, +80 mV	–	80 ± 50
CC(=O)N[C@@H](CCCNC(=N)N)C(=O)N[C@@H](CCCNC(=N)N)C(=O)N[C@H](C(=O)N1Cc2ccccc2C[C@H]1C(N)=O)[C@@H](c1ccccc1)c1c[nH]c2ccccc12	Mc1r	cAMP, agonist, AlphaScreen	–	–	–	6700
CC[C@H](C)[C@H](NC(=O)[C@H](CC(N)=O)NC(=O)[C@@H](NC(=O)[C@H](Cc1ccccc1)NC(=O)[C@H](Cc1ccccc1)NC(=O)[C@H](CCSC)NC=O)[C@@H](C)CC)C(=O)N[C@@H](CC(C)C)C(=O)N[C@H](C(=O)N[C@@H](CC(C)C)C(=O)O)[C@@H](C)O	Formyl peptide receptor 2 (Mus musculus, UniProt O88536)	calcium mobilisation, agonist, FLIPR Fluo-4	HEK-293T with Gα16	–	–	57
CN(C)c1nc(N2CCNCC2)c2sc3nc(-c4ccccc4)ccc3c2n1	uidA	enzyme activity, inhibitor, in-cell	K12 MG1655	24 h	–	7
N[C@H](C(=O)N1CCCC1)C1CCN(c2nccc3c(-c4ncc(Cl)cc4Cl)cccc23)CC1	PADI4 (Homo sapiens, UniProt Q9UM07)	thermal stability	–	–	–	1950
C[C@@H]1NC(=O)[C@H](CC(N)=O)NC(=O)[C@H](Cc2c[nH]c3ccccc23)NC(=O)[C@H](CCCNC(=N)N)NC(=O)[C@@H](Cc2ccccc2)NC(=O)[C@H](Cc2c[nH]cn2)NC(=O)[C@@H](NC(=O)[C@@H](N)Cc2ccc(O)cc2)CCCn2nncc2-c2cccc(c2)-c2cnnn2CCC[C@@H](C(=O)N[C@@H](Cc2ccc(O)cc2)C(N)=O)NC(=O)[C@H](Cc2ccccc2)NC1=O	Mc1r	agonist	–	–	–	570 ± 153
CSCC[C@H](NC(=O)[C@H](Cc1ccccc1)NC(=O)[C@H](CO)NC(=O)CNC(=O)[C@@H](NC(=O)[C@H](C)NC(=O)[C@H](Cc1c[nH]c2ccccc12)NC(=O)[C@H](CC(C)C)NC(=O)[C@@H]1CCC(=O)N1)C(C)C)C(N)=O	GRPR	inositol phosphate, agonist	–	–	–	288
CN(C)[C@H](CNC(=O)/C=C/c1cccc2ccccc12)Cc1ccc(O)cc1	Mu-type opioid receptor, with Gi3 (OPRM1, Homo sapiens, UniProt P35372)	receptor activation, agonist	–	–	–	19
Cn1ccc(-c2ccc(Cn3cc(C(=O)N[C@H]4CCCC[C@@H]4O)c4c(F)cc(F)cc43)cn2)n1	CHRM1	calcium mobilization, positive allosteric modulator	CHO	added: acetylcholine EC20	–	220
CN1CCN(c2nnnc3c2sc2nc(N4CCOCC4)c4c(c23)CCCC4)CC1	uidA	–	–	–	–	2300 ± 500
C[N+]1([O-])CCN(C2=Nc3cc(Cl)ccc3Nc3ccccc32)CC1	CHRM3 (Homo sapiens, UniProt P20309, A239G/Y149C)	calcium signal, agonist	–	–	–	6
CC(=O)N[C@@H](CCCNC(=N)N)C(=O)N[C@@H](CCCNC(=N)N)C(=O)N[C@H](Cc1ccc(I)cc1)C(=O)N[C@H](C(N)=O)[C@H](c1ccccc1)c1c[nH]c2ccccc12	Mc1r	cAMP, agonist, AlphaScreen	–	–	–	380
CC[C@H](C)[C@H](NC(=O)[C@H](C)NC(=O)[C@H](CCC(=O)O)NC(=O)[C@H](CC(N)=O)NC(=O)[C@@H](N)CO)C(=O)N[C@@H](CO)C(=O)N1CCC[C@H]1C(=O)N[C@@H](Cc1ccccc1)C(=O)N[C@@H](CC(=O)O)C(=O)N[C@@H](CCC(N)=O)C(=O)NCC(=O)N[C@@H](CCSC)C(=O)N[C@@H](CCSC)C(=O)NCC(=O)N[C@@H](Cc1ccc(O)cc1)C(=O)N[C@H](C(=O)N[C@H](C(=O)N[C@@H](CCCCN)C(=O)N[C@H](C(=O)N[C@@H](CC(N)=O)C(=O)N[C@@H](CCCCN)C(=O)N[C@@H](CC(N)=O)C(=O)N[C@H](C(=O)N1CCC[C@H]1C(=O)N[C@@H](CCCNC(=N)N)C(=O)N[C@@H](CCSC)C(N)=O)[C@@H](C)CC)[C@@H](C)O)[C@@H](C)CC)C(C)C	Ecdysis triggering hormone receptor B (Aedes aegypti, UniProt A7J265)	–	–	–	–	~112
CC[C@H](C)[C@H](NC(=O)[C@H](CO)NC(=O)[C@H](Cc1ccc(O)cc1)NC(=O)[C@H](CC(=O)O)NC(=O)[C@H](CO)NC(=O)[C@@H](NC(=O)[C@H](Cc1ccccc1)NC(=O)[C@@H](NC(=O)CNC(=O)[C@H](CCC(=O)O)NC(=O)C(C)(C)NC(=O)[C@@H](N)Cc1ccc(O)cc1)[C@@H](C)O)[C@@H](C)CC)C(=O)N[C@@H](C)C(=O)N[C@@H](CCSC)C(=O)N[C@@H](CC(=O)O)C(=O)N[C@@H](CCCCN)C(=O)N[C@H](C(=O)N[C@@H](CCCNC(=N)N)C(=O)N[C@@H](CCC(N)=O)C(=O)N[C@@H](CCC(N)=O)C(=O)N[C@@H](CC(=O)O)C(=O)N[C@@H](Cc1ccccc1)C(=O)N[C@H](C(=O)N[C@@H](CC(N)=O)C(=O)N[C@@H](Cc1c[nH]c2ccccc12)C(=O)N[C@@H](CC(C)C)C(=O)N[C@@H](CC(C)C)C(=O)N[C@@H](C)C(=O)N[C@@H](CCC(N)=O)C(=O)N[C@@H](CCCNC(=N)N)C(=O)NCC(=O)N[C@@H](CCCCN)C(=O)N[C@@H](CCCCN)C(=O)N[C@@H](CO)C(=O)N[C@@H](CC(=O)O)C(=O)N[C@@H](Cc1c[nH]c2ccccc12)C(=O)N[C@@H](CCCCN)C(=O)N[C@@H](Cc1c[nH]cn1)C(=O)N[C@@H](CC(N)=O)C(=O)N[C@H](C(=O)N[C@H](C(=O)N[C@@H](CCC(N)=O)C(=O)O)[C@@H](C)O)[C@@H](C)CC)C(C)C)[C@@H](C)CC	Gastric inhibitory polypeptide receptor (Mus musculus, UniProt Q0P543)	reporter gene, agonist, luciferase	–	–	–	0.0039
CSCC[C@H](NC(=O)[C@H](CC(C)C)NC(=O)CNC(=O)[C@H](Cc1ccccc1)NC(=O)[C@H](Cc1ccccc1)NC(=O)[C@@H]1CCC(=O)N1)C(N)=O	TACR2 (Homo sapiens, UniProt P21452)	β-arrestin recruitment, agonist	–	–	–	32
CC(=O)N[C@@H](CCCNC(=N)N)C(=O)N[C@@H](Cc1ccc(O)cc1)C(=O)N[C@@H](CCCN/C(N)=N/C(=O)NCCCCN)C(=O)N[C@@H](CC(C)C)C(=O)N[C@@H](CCCNC(=N)N)C(=O)N[C@@H](Cc1ccc(O)cc1)C(N)=O	NPY4R (Homo sapiens, UniProt P50391)	β-arrestin 2 recruitment, agonist	HEK293T	–	–	124 ± 24
[2H]C([2H])(C)N1CCN(C2=Nc3cc(Cl)ccc3Nc3ccccc32)CC1	CHRM3	calcium signal, agonist	–	–	–	> 30000
CS(=O)(=O)c1ccc(Cn2cc(C(=O)N[C@H]3CCCC[C@@H]3O)c3c(F)cc(F)cc32)cc1	CHRM1	calcium mobilization, positive allosteric modulator	CHO	added: acetylcholine EC20	–	3470
CSCC[C@H](NC=O)C(=O)N[C@@H](Cc1ccccc1)C(=O)N[C@H](C(=O)N[C@@H](Cc1ccccc1)C(=O)N[C@@H](CCC(=O)O)C(=O)N1CCC[C@H]1C(=O)N[C@@H](Cc1ccccc1)C(=O)N1CCC[C@H]1C(=O)N[C@H](C(=O)N[C@@H](CC(N)=O)C(=O)O)[C@@H](C)O)[C@@H](C)O	FPR1 N192K	receptor surface downregulation, agonist	CHO cells	1 h, 37 °C	–	3.1 ± 0.2
C[N+](C)(CC#CCOC1=NOCC1)CCCCCCNC(=O)CCOCCOCCOCCOCCNC(=O)CCCC(=O)NCCCCC(C(=O)O)N(CC(=O)O)CC(=O)O (stereo not shown)	CHRM1	calcium response, agonist	CHO	–	–	2300
c1cnc2c(c1)c1nccnc1c1cccnc12	TAS2R5 (Homo sapiens, UniProt Q9NYW4)	calcium signal, agonist, fluorescence	–	–	–	78400
C=C(C)C(=O)Oc1ccc(C(C)(C)c2ccc(OC(=O)C(=C)C)cc2)cc1	Estrogen receptor (ESR1, Homo sapiens, UniProt P03372)	reporter gene, agonist	MVLN	50% of control maximum	–	4800
CC[C@H](C)[C@H](NC(=O)[C@@H](Cc1c[nH]c2ccccc12)NC(=O)[C@@H]1CCCN1C(=O)[C@H](CCCCN)NC(=O)[C@H](CCCCN)NC(=O)CCNC(=O)CCNC(=O)CN1CCN(CC(=O)O)CCN(CC(=O)O)CCN(CC(=O)O)CC1)C(=O)N[C@@H](C[Si](C)(C)C)C(=O)O	NTSR2 (Homo sapiens, UniProt O95665)	calcium mobilization, agonist	HT-29	–	–	431
CSCC[C@H](NC(=O)[C@H](CC(C)C)NC(=O)[C@H](CO)NC(=O)CNC(=O)[C@@H](NC(=O)[C@H](C)NC(=O)[C@H](Cc1c[nH]c2ccccc12)NC(=O)[C@H](CC(C)C)NC(=O)[C@@H]1CCC(=O)N1)C(C)C)C(N)=O	GRPR	inositol phosphate generation, agonist	BALB/3T3 transfected with human GRPR	45 min, 37 °C	reference: 1 µM GRP	67.6 ± 2.03
Nc1ncnc2c1ncn2C1OC(COP(=O)(O)OP(=O)(O)OCC2OC(O)C(O)C2O)C(O)C1O (stereo not shown)	TRPM2 (Nematostella vectensis, UniProt A7T1N0, T143A)	channel activation, agonist, inside-out patch clamp	–	T143A, 2.5 µM PIP2, added: 125 µM Ca2+	–	6300 ± 300
CSCC[C@H](NC=O)C(=O)N[C@@H](Cc1ccccc1)C(=O)N[C@@H](CCC(=O)O)C(=O)N[C@@H](CC(=O)O)C(=O)N[C@@H](C)C(=O)N[C@H](C(=O)N[C@@H](C)C(=O)N[C@@H](Cc1c[nH]c2ccccc12)C(=O)N[C@@H](Cc1ccccc1)C(=O)O)C(C)C	FPR1 N192K	receptor surface downregulation, agonist	CHO cells	1 h, 37 °C	–	1000 ± 80
